# Results from different studies.
# Every numbered part comes from another study and shows a few of its results, in no order. “And” joins repeats or separate records; there may be more than shown.
# UniProt P16234, sequence (whole entry, looked up): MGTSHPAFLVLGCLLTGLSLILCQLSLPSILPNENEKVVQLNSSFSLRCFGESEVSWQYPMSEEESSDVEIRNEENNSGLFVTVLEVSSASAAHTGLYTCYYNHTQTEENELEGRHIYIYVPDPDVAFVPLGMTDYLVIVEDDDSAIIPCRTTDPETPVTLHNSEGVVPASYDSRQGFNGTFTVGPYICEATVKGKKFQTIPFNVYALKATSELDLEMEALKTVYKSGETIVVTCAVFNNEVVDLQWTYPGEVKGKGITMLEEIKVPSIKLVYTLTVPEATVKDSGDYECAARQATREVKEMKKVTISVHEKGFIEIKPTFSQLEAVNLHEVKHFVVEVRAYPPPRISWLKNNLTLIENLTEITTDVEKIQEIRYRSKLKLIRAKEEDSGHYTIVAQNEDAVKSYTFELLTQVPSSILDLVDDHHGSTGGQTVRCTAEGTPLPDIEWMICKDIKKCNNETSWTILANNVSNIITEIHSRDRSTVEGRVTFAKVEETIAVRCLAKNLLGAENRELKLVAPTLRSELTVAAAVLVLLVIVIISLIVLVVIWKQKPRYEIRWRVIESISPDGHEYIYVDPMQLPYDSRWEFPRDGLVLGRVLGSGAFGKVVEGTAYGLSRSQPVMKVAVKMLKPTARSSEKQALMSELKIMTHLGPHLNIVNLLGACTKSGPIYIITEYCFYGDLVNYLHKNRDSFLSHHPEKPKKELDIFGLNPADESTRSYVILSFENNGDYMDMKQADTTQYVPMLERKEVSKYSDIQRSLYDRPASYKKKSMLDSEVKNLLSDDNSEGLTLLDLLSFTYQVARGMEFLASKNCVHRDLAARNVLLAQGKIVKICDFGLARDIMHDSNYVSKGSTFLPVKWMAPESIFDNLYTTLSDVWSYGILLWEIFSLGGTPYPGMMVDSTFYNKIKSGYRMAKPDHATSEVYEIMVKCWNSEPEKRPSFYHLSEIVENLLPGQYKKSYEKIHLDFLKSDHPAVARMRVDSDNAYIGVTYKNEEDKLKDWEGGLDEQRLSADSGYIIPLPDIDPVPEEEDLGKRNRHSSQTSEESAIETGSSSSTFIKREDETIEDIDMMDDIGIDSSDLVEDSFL
# UniProt P48730, sequence (whole entry, looked up): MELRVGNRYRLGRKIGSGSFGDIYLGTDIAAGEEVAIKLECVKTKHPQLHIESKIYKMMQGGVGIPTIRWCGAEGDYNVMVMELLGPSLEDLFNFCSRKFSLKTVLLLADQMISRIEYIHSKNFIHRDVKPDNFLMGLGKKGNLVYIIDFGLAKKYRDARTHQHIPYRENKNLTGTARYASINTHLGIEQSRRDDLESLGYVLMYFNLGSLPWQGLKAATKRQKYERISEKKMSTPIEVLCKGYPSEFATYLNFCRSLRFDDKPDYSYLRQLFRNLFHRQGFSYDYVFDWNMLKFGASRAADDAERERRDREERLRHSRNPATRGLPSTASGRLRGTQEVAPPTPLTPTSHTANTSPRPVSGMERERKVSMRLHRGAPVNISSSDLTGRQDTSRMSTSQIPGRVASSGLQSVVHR

# Sample 1
# SMILES: NC/C(=C\F)COc1cccc(Cn2c(=S)[nH]c(=O)c3[nH]ccc32)c1
# Effect on: enzyme activity
# Action: inhibitor
# Technique: fluorescence
# AOC3: Amine oxidase [copper-containing] 3 (AOC3, Homo sapiens, UniProt Q16853)
# UniProt Q16853, sequence (whole entry, looked up): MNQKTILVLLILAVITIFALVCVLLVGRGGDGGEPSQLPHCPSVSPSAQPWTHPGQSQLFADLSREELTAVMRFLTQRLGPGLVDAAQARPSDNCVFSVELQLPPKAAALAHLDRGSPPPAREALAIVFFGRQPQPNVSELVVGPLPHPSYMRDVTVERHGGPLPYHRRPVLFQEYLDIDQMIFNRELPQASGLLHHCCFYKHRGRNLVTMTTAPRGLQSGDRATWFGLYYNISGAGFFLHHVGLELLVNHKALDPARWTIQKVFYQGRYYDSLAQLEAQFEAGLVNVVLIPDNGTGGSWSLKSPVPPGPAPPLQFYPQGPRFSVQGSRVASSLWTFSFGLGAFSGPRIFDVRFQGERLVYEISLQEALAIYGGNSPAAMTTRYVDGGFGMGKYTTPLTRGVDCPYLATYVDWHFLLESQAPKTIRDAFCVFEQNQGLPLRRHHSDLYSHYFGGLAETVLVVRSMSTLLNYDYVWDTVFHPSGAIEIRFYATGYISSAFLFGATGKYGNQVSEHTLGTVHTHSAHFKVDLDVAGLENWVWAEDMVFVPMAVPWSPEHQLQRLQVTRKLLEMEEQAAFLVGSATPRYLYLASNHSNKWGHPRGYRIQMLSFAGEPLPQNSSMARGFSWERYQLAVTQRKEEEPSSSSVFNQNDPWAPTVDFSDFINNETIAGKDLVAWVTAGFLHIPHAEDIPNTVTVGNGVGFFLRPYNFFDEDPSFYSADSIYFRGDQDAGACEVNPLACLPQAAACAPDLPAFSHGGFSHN
# MPO: Myeloperoxidase (MPO, Homo sapiens, UniProt P05164)
# UniProt P05164, sequence (whole entry, looked up): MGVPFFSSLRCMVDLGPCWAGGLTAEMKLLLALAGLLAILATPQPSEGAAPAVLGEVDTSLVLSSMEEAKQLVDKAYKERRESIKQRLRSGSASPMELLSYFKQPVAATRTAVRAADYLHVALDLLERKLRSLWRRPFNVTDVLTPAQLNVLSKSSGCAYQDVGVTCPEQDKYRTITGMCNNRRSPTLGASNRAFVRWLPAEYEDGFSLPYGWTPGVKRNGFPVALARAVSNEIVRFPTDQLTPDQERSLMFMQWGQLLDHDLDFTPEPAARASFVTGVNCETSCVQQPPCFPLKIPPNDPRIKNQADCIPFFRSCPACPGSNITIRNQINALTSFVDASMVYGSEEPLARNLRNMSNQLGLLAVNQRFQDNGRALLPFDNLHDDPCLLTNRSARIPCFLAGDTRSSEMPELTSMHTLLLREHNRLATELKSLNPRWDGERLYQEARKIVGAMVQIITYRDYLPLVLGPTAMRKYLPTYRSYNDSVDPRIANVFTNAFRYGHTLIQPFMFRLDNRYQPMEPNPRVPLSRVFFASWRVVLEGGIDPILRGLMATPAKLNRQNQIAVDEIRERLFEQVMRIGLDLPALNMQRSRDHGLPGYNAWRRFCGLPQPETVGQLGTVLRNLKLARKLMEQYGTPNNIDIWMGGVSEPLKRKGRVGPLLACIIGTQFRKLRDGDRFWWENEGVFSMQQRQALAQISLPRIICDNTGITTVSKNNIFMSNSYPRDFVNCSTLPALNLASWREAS
target,concentration,inhibition
AOC3,41.2 nM,84.2% and 92.4% and 84.7% and 68.8% and 88.1% and 91.7%
MPO,3.333 µM,99.5% and 99.4% and 98.9%
AOC3,0.3704 µM,99.2% and 95.3% and 99.1% and 98.5% and 97.8%
AOC3,3.333 µM,100% and 99.5% and 99.4% and 99.9% and 97.3%
MPO,0.3704 µM,98.2% and 98.6% and 96.7%
MPO,1.667 µM,99.6% and 98.9% and 98.6%
MPO,200 pM,6.42%
MPO,0.5556 µM,98.3% and 98% and 99.5%

# Sample 2
# Structure (SMILES): C[C@@H]1CN(c2ccc(-c3cc(C(=O)NCCOCCOCCOCCOCCOCCOCCNC(=O)/C=C/c4[nH]cc(C(=O)N[C@@H](CC(N)=O)c5ccc(F)c(Cl)c5)c4-c4ccc(Cl)cc4F)ccc3F)cc2NC(=O)c2ccc(F)cc2C(F)(F)F)C[C@H](C)N1C
# Effect on: thermal unfolding
# Technique: differential scanning fluorimetry
# Concentration: 5.5 µM
# Reading: higher = more unfolded
# DCAF1: DDB1- and CUL4-associated factor 1 (DCAF1, Homo sapiens, UniProt Q9Y4B6)
# UniProt Q9Y4B6, sequence (whole entry, looked up): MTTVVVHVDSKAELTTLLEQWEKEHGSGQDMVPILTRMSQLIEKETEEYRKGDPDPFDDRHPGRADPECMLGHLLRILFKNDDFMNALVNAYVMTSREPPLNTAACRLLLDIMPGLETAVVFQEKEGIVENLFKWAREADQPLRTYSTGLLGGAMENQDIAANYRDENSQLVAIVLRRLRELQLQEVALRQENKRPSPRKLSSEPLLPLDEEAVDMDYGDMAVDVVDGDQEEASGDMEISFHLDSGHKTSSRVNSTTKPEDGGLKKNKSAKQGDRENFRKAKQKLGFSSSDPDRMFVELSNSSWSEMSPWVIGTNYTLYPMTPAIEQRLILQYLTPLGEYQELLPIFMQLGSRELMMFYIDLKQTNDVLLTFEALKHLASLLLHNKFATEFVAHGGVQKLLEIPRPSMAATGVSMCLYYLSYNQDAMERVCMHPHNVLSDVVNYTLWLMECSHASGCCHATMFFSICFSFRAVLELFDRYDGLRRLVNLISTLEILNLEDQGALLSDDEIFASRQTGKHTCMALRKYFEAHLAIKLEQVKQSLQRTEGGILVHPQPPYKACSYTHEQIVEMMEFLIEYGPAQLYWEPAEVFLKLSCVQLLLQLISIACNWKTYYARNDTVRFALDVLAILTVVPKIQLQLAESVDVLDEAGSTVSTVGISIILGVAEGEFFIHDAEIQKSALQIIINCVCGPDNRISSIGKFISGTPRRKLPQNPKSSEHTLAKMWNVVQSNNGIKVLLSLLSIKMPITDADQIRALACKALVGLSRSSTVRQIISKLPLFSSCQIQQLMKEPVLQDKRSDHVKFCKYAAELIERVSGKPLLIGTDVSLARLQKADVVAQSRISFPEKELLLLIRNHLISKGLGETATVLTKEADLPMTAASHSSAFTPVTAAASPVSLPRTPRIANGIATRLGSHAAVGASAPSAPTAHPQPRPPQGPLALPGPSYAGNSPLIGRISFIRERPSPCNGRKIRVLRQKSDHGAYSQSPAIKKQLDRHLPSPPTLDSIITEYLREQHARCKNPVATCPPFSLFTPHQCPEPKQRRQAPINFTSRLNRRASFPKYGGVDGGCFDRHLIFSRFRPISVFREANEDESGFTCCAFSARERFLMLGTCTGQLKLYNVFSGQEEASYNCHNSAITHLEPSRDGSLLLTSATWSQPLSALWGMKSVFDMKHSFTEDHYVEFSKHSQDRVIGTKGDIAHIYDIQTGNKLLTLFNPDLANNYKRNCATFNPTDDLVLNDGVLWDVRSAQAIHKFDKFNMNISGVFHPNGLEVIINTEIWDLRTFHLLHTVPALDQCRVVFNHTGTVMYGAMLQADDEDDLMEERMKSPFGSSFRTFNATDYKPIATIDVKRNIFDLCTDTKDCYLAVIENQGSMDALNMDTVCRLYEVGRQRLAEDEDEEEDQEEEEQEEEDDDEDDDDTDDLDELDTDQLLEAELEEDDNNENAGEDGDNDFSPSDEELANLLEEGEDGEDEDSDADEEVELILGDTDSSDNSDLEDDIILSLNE
# WDR5: WD repeat-containing protein 5 (WDR5, Homo sapiens, UniProt P61964)
target,temperature,SYPRO Orange fluorescence [a.u.]
DCAF1,75.01 °C,43700
WDR5,35.2 °C,14000
DCAF1,81.61 °C,38900
DCAF1,49.4 °C,17600
WDR5,67.81 °C,21200
WDR5,60.21 °C,15300
WDR5,61.01 °C,15100
DCAF1,71.81 °C,46500
DCAF1,91.81 °C,31000
DCAF1,80.21 °C,39800
WDR5,67.21 °C,19700

# Sample 3
# Structure (SMILES): Cc1ccc(O)c(C)c1-c1cnc2[nH]c(-c3cnc(N4CCC5(CC4)CC(N4CCN(c6ccc(N[C@H]7CCC(=O)NC7=O)cc6F)CC4)CO5)nc3)cc2c1C#N (single isomer, unassigned)
# PKMYT1: Membrane-associated tyrosine- and threonine-specific cdc2-inhibitory kinase (PKMYT1, Homo sapiens, UniProt Q99640)
# UniProt Q99640, sequence (whole entry, looked up): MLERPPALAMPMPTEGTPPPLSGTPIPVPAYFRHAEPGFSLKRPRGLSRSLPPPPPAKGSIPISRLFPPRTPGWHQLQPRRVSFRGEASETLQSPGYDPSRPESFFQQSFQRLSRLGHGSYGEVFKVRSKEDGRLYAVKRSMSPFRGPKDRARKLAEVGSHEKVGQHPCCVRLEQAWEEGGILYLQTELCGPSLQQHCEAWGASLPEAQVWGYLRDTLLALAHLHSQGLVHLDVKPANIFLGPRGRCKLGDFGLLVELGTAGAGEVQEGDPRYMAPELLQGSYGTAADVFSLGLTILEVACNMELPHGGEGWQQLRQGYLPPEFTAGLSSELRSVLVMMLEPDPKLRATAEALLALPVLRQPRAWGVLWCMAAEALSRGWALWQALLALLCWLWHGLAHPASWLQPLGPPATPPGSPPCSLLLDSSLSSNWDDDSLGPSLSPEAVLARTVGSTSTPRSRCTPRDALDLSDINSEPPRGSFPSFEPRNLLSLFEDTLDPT
target or system,effect on,action,technique,concentration,inhibition
PKMYT1,binding,,HTRF,1111.11 nM,101% and 98.6%
PKMYT1,enzyme activity,inhibitor,,4.572 nM,54.1%
HuCCT-1,cell proliferation,,,3333.33 nM,96.9%
PKMYT1,enzyme activity,inhibitor,,1 µM,97.1%
PKMYT1,binding,,HTRF,1.52 nM,23.9% and 26.8%
PKMYT1,,,,0.3704 µM,97.6%
MDA-MB-436,cell proliferation,,,10000 nM,95.9%
PKMYT1,,,,0.001524 µM,22.2%
PKMYT1,,,,0.5081 nM,12.8% and 7.26%
MDA-MB-436,cell proliferation,,,4.57 nM,1.18% and 1.42% and 6.2%
PKMYT1,enzyme activity,inhibitor,,12.35 nM,61.2%
HCC1806,cell proliferation,,,41.15 nM,4.95% and 0.89% and 0.93%

# Sample 4
# SMILES: CCC1(c2cccc(-c3cn(C)nc3C)c2)C2=C(Nc3n[nH]cc31)C(F)C(C)(C)CC2=O (single isomer, unassigned)
# Concentration: 1 µM
target,effect on,technique,baseline,remaining binding [%]
"PIK3CG (Homo sapiens, UniProt P48736)",binding,competition with immobilised ligand,,100
"STK3 (Homo sapiens, UniProt Q13188)",kinase binding,KINOMEscan,DMSO control,96
"PRKACB (Homo sapiens, UniProt P22694)",binding,competition with immobilised ligand,,90
"EGFR (Homo sapiens, UniProt P00533, del747-752/P753S)",binding,competition with immobilised ligand,,64
"AKT1 (Homo sapiens, UniProt P31749)",binding,competition with immobilised ligand,,100
"LRRK2 (Homo sapiens, UniProt Q5S007)",binding,competition with immobilised ligand,,83
"PKMYT1 (Homo sapiens, UniProt Q99640)",binding,competition with immobilised ligand,,99
"TTK (Homo sapiens, UniProt P33981)",binding,competition with immobilised ligand,,100
"PDGFRA (Homo sapiens, UniProt P16234)",kinase binding,KINOMEscan,DMSO control,100
"KIT (Homo sapiens, UniProt P10721, V559D/V654A)",kinase binding,KINOMEscan,DMSO control,98
"STK32A (Homo sapiens, UniProt Q8WU08)",binding,competition with immobilised ligand,,100
"CDKL3 (Homo sapiens, UniProt Q8IVW4)",binding,competition with immobilised ligand,,100
"MKNK2 (Homo sapiens, UniProt Q9HBH9)",binding,competition with immobilised ligand,,100
"PRKCH (Homo sapiens, UniProt P24723)",kinase binding,KINOMEscan,DMSO control,100
"CSNK1D (Homo sapiens, UniProt P48730)",binding,competition with immobilised ligand,,100
"Ribosomal protein S6 kinase alpha-5, N-terminal kinase domain (RPS6KA5, Homo sapiens, UniProt O75582)",binding,competition with immobilised ligand,,100
"PAK1 (Homo sapiens, UniProt Q13153)",binding,competition with immobilised ligand,,100
"DCLK1 (Homo sapiens, UniProt O15075)",binding,competition with immobilised ligand,,88
